Measured values collected from several papers.
Numbered parts are unrelated; each lists some results of a single study. “And” joins repeats or separate records; there may be more than shown.
UniProt P29597, sequence (whole entry, looked up): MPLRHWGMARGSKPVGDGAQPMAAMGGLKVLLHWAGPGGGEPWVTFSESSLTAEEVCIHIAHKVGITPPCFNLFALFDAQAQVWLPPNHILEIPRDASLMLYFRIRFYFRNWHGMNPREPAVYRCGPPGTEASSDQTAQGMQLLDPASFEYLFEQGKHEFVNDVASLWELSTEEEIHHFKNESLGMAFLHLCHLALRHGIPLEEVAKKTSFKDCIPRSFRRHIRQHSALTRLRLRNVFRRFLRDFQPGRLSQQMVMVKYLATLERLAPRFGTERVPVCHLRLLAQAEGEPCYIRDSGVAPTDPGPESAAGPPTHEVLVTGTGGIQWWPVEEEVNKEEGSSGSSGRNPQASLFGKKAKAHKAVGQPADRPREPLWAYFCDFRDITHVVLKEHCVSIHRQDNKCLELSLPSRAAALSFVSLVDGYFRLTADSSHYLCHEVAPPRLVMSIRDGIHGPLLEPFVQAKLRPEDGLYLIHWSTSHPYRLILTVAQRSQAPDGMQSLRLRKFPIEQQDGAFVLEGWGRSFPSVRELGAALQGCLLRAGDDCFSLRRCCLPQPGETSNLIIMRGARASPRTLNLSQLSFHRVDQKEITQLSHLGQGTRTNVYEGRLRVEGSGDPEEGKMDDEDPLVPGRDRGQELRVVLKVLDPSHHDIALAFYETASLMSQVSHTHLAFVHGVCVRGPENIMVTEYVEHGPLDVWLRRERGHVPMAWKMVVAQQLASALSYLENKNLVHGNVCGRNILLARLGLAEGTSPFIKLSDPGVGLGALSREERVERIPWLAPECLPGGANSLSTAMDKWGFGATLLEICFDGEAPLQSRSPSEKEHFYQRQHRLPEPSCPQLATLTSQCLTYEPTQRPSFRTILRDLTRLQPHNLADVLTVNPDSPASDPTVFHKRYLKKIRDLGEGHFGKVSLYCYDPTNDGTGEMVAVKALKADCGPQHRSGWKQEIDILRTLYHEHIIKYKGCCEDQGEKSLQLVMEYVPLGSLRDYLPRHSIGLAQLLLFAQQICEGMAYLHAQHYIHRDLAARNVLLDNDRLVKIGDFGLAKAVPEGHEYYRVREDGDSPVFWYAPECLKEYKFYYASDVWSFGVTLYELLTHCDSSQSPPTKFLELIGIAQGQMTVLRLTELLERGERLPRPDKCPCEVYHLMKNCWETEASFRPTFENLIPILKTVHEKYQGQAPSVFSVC
UniProt P29320, sequence (whole entry, looked up): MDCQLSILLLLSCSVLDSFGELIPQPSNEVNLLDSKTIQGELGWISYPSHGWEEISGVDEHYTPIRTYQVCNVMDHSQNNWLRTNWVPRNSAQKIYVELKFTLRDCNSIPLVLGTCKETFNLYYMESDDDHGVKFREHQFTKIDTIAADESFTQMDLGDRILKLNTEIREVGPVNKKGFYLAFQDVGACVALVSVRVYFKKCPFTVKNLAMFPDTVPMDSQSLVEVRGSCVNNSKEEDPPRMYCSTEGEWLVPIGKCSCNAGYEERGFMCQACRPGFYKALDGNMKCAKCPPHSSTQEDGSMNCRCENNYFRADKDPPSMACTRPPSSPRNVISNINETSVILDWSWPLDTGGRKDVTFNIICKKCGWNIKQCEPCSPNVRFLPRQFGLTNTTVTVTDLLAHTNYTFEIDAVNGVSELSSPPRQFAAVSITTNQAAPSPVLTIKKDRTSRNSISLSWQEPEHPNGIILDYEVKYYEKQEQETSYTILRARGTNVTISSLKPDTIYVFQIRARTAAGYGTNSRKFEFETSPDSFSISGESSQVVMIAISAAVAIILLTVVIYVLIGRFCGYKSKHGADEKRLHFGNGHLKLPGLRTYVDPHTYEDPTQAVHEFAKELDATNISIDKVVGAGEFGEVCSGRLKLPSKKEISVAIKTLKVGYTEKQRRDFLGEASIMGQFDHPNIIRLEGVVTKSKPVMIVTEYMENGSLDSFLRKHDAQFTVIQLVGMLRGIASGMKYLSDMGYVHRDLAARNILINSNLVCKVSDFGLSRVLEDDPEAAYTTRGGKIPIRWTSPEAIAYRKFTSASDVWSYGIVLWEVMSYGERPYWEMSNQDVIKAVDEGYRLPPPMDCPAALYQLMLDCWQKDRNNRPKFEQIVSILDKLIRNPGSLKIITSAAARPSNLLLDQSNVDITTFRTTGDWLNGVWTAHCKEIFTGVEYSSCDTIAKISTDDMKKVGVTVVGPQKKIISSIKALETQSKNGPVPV
UniProt Q9Y2U5, sequence (whole entry, looked up): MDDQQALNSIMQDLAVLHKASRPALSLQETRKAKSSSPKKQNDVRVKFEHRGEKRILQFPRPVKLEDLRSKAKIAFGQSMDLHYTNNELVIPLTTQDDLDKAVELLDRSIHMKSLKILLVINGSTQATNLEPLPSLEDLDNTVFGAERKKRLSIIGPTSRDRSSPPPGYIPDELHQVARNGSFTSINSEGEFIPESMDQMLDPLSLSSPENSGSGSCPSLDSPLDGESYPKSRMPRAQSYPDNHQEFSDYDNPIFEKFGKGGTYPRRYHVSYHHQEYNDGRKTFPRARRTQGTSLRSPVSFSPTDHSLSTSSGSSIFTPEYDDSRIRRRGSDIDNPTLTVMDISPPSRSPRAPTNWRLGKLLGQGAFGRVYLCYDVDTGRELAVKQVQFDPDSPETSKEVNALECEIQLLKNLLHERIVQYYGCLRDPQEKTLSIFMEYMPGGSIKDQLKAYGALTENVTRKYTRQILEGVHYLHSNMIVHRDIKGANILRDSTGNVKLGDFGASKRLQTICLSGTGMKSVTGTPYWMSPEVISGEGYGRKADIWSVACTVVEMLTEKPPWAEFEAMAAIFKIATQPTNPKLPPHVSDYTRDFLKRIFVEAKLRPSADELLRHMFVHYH
UniProt Q96PN8, sequence (whole entry, looked up): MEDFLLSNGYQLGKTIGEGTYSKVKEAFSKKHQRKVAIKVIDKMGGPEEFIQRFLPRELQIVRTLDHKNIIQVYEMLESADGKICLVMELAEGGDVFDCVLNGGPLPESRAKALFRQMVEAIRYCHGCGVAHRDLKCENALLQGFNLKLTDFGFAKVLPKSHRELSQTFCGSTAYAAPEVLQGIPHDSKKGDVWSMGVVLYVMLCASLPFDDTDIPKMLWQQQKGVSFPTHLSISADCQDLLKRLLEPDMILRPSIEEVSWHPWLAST

Block 1
Compound: O=C1NC(c2ccccn2)Sc2ccccc21 (stereo not drawn)
Observed: cell-free assay
Technique: competition with immobilised ligand
Tested at: 1 µM
| target | remaining binding |
| --- | --- |
| Mitogen-activated protein kinase kinase kinase 2 (MAP3K2, Homo sapiens, UniProt Q9Y2U5) | 82% |
| Serine/threonine-protein kinase SIK3 (SIK3, Homo sapiens, UniProt Q9Y2K2) | 70% |
| Tyrosine-protein kinase ABL1, phosphorylated (ABL1, Homo sapiens, UniProt P00519, F317L) | 100% |
| Cyclin-dependent kinase 16 (CDK16, Homo sapiens, UniProt Q00536) | 100% |
| Non-receptor tyrosine-protein kinase TYK2, JH2 (TYK2, Homo sapiens, UniProt P29597) | 86% |
| Serine/threonine-protein kinase TAO2 (TAOK2, Homo sapiens, UniProt Q9UL54) | 71% |
| Tyrosine-protein kinase JAK1, JH1 (JAK1, Homo sapiens, UniProt P23458) | 68% |
| Atypical kinase COQ8B, mitochondrial (COQ8B, Homo sapiens, UniProt Q96D53) | 67% |
| Mitogen-activated protein kinase 13 (MAPK13, Homo sapiens, UniProt O15264) | 100% |
| Serine/threonine-protein kinase 33 (STK33, Homo sapiens, UniProt Q9BYT3) | 93% |
| Ribosomal protein S6 kinase beta-1 (RPS6KB1, Homo sapiens, UniProt P23443) | 75% |
| Proto-oncogene tyrosine-protein kinase receptor Ret (RET, Homo sapiens, UniProt P07949) | 88% |
| Serine/threonine-protein kinase TBK1 (TBK1, Homo sapiens, UniProt Q9UHD2) | 87% |
| Testis-specific serine/threonine-protein kinase 3 (TSSK3, Homo sapiens, UniProt Q96PN8) | 88% |
| Serine/threonine-protein kinase ULK3 (ULK3, Homo sapiens, UniProt Q6PHR2) | 100% |
| Serine/threonine-protein kinase RIO2 (RIOK2, Homo sapiens, UniProt Q9BVS4) | 83% |
| Calcium/calmodulin-dependent protein kinase kinase 1 (CAMKK1, Homo sapiens, UniProt Q8N5S9) | 88% |
| Serine/threonine-protein kinase WNK2 (WNK2, Homo sapiens, UniProt Q9Y3S1) | 100% |
| Phosphatidylinositol 4,5-bisphosphate 3-kinase catalytic subunit gamma isoform (PIK3CG, Homo sapiens, UniProt P48736) | 91% |
| Tyrosine-protein kinase ABL1, phosphorylated (ABL1, Homo sapiens, UniProt P00519, T315I) | 93% |
| Tyrosine-protein kinase ABL1, non-phosphorylated (ABL1, Homo sapiens, UniProt P00519, Q252H) | 75% |
| G protein-coupled receptor kinase 4 (GRK4, Homo sapiens, UniProt P32298) | 100% |
| High affinity nerve growth factor receptor (NTRK1, Homo sapiens, UniProt P04629) | 100% |
| Ephrin type-A receptor 3 (EPHA3, Homo sapiens, UniProt P29320) | 100% |
| Activin receptor type-1 (ACVR1, Homo sapiens, UniProt Q04771) | 82% |

Block 2
SMILES: C=CCc1ccc(O)c(-c2ccc(O)c(CC=C)c2)c1
Target: Anoctamin-1 (ANO1, Homo sapiens, UniProt Q5XXA6, del476-501)
UniProt Q5XXA6, sequence (whole entry, unmodified, looked up): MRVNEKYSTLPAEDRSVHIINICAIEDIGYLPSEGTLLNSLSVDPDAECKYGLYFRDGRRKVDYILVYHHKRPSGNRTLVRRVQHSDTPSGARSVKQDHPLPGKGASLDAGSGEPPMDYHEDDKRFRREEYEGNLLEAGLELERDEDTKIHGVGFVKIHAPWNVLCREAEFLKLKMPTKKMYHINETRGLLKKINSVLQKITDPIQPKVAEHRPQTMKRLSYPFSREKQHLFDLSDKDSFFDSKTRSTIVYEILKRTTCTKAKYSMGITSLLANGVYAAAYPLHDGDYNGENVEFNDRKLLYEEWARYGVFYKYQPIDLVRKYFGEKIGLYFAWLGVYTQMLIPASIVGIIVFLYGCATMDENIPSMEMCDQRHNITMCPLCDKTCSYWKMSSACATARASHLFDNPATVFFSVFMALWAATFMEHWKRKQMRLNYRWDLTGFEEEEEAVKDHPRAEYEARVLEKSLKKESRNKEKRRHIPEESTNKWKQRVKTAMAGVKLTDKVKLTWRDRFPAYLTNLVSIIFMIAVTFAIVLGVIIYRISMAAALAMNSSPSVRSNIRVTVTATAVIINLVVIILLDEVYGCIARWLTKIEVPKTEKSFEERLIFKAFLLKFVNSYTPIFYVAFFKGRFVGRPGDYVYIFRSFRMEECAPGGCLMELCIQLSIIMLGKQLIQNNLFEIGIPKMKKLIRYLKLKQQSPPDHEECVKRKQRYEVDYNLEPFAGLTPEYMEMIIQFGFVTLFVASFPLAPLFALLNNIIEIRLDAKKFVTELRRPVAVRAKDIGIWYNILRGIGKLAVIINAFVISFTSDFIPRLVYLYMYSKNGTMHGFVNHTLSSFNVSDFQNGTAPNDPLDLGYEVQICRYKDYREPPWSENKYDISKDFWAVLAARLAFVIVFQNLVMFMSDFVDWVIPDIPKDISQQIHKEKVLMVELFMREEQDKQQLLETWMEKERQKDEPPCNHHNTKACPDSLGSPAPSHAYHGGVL
Observed: chloride current
Technique: whole-cell patch clamp
| setting | normalised current |
| --- | --- |
| 3 µM, 80 mV, 300 nM free Ca2+, together with: honokiol and magnolol 10 µM | 0.267 |
| 1 µM, 60 mV, 300 nM free Ca2+, together with: honokiol and magnolol 10 µM | 0.277 |
| 30 µM, 100 mV, 300 nM free Ca2+ | 0.131 and 0.138 |
| 10 µM, 80 mV, 300 nM free Ca2+ | 0.217 and 0.228 |
| 30 µM, 80 mV, 300 nM free Ca2+, together with: honokiol and magnolol 10 µM | 0.0738 |
| 1 µM, 100 mV, 300 nM free Ca2+ | 0.973 |
| 30 µM, 40 mV, 300 nM free Ca2+ | 0.0173 and 0.0182 |
| 3 µM, -20 mV, 300 nM free Ca2+, together with: honokiol and magnolol 10 µM | -0.0156 |

Block 3
Target: Calcium/calmodulin-dependent protein kinase type II subunit alpha (CAMK2A, Homo sapiens, UniProt Q9UQM7)
UniProt Q9UQM7, sequence (whole entry, looked up): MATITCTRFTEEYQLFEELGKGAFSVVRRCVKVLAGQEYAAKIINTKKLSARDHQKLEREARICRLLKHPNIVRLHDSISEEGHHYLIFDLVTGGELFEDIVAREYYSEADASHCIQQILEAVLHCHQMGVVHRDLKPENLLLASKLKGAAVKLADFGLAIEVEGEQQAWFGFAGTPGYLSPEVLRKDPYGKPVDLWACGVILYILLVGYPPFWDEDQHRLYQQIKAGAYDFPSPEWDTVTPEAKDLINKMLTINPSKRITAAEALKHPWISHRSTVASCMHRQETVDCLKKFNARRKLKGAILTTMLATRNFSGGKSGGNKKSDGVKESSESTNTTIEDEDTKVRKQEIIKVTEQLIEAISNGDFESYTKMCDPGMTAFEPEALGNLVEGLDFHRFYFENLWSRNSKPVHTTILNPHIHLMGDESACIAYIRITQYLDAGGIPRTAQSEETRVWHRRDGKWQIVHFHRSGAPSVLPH
Observed: enzyme activity
Action: inhibitor
Tested at: 10 µM
| SMILES | inhibition [%] |
| --- | --- |
| C[S+](CCC(N)C(=O)[O-])C[C@H]1O[C@@H](n2cnc3c(N)ncnc32)[C@H](O)[C@@H]1O (mixture of isomers) | -30 |
| NC(=O)CC(N)C(=O)O (racemic) | 31 |
| CC1=CC(=O)C(C(C)C)CC1 (stereo not drawn) | 36 |
| OCc1ccoc1 | -3 |
| CC[C@@]1(O)C(=O)OCc2c1cc1n(c2=O)Cc2cc3c([N+](=O)[O-])cccc3nc2-1 | -8 |
| COc1ccccc1/C=C/C(=O)O | -6 |
| C[C@@H](OC[C@@]1(c2ccccc2)CC[C@]2(CCC(=O)N2)CN1)c1cc(C(F)(F)F)cc(C(F)(F)F)c1 | 0 |
| CC(C)=CCC/C(C)=C/COc1c2occc2cc2ccc(=O)oc12 | -20 |

Block 4
Target: Protein-tyrosine kinase 6 (PTK6, Homo sapiens, UniProt Q13882)
UniProt Q13882, sequence (whole entry, looked up): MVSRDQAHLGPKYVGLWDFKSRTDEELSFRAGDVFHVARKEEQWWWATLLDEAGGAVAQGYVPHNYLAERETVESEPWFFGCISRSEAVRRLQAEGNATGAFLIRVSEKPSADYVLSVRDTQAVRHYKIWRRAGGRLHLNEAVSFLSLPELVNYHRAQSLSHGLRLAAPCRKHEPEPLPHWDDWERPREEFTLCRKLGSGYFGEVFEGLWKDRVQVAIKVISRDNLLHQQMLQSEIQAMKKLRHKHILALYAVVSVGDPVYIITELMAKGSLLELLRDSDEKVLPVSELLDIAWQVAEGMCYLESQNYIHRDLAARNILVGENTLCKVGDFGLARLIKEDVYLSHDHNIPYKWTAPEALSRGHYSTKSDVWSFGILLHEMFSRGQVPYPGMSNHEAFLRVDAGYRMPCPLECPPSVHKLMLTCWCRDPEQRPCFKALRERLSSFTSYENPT
Observed: enzyme activity
Action: inhibitor
Tested at: 0.5 µM
Reference: control
| Structure (SMILES) | remaining activity |
| --- | --- |
| CN(C)S(=O)(=O)c1ccc2c(c1)/C(=C/c1cc3c([nH]1)CCCC3)C(=O)N2 | 56.3% |
| c1ccc2c(-c3ccncc3)c[nH]c2c1 | 85.5% |
| CCCCc1c(-c2ccc(OC)cc2)[nH]c2nccnc12 | 30.4% |
| COc1cccc(-c2cc(=O)c3ccccc3o2)c1N | 92.6% |
| O=C(c1cc2cc(O)ccc2[nH]1)c1cc2cc(O)ccc2[nH]1 | 91.9% |
| O=C1Nc2ccccc2/C1=C\c1c(Cl)[nH]c2ccccc12 | 76.9% |
| O=C1NC(=O)c2c1c1c3ccccc3[nH]c1c1[nH]c3cc(Br)ccc3c21 | 92.7% |
| O=Nc1c(-c2c(O)[nH]c3cc(Br)ccc23)[nH]c2ccccc12 | 89.3% |
| Oc1cccc(-c2nc(N3CCOCC3)c3oc4ncccc4c3n2)c1 | 80.8% |
| Cc1ccc(S(=O)(=O)/C=C/C#N)cc1 | 93.1% |
| O=C1Nc2ccc(Br)cc2/C1=C/c1cc2c([nH]1)CCCC2 | 82.3% |
| O=c1cc(N2CCOCC2)oc2c(-c3ccccc3)cccc12 | 96% |
| CN1CCN(c2ccc3nc(-c4c(N)c5c(F)cccc5[nH]c4=O)[nH]c3c2)CC1 | 96.4% |
| CCCNC(=O)Nc1ccc(Oc2ncnc3cc(OC)c(OC)cc23)cc1Cl | 48.3% |
| N#Cc1cnc2cnc(NCc3cccnc3)cc2c1Nc1ccc(F)c(Cl)c1 | 84.1% |
| COc1ccc(COc2ccc(Cc3cnc(N)nc3N)cc2OC)cc1 | 96.1% |
| COc1ccc2c(c1)c(C1=C(c3c[nH]c4ccccc34)C(=O)NC1=O)cn2CCCN(C)C | 92% |
| O=C1Cc2c([nH]c3ccc(Br)cc23)-c2ccccc2N1 | 87.7% |
| O=C1NC(=O)c2c1c1c3ccccc3[nH]c1n1cncc21 | 89% |

Excerpt of the above (block 1):
| target | remaining binding |
| --- | --- |
| Serine/threonine-protein kinase SIK3 (SIK3, Homo sapiens, UniProt Q9Y2K2) | 70% |
| Tyrosine-protein kinase ABL1, phosphorylated (ABL1, Homo sapiens, UniProt P00519, T315I) | 93% |
| Serine/threonine-protein kinase RIO2 (RIOK2, Homo sapiens, UniProt Q9BVS4) | 83% |
| Serine/threonine-protein kinase 33 (STK33, Homo sapiens, UniProt Q9BYT3) | 93% |
| Atypical kinase COQ8B, mitochondrial (COQ8B, Homo sapiens, UniProt Q96D53) | 67% |
| Serine/threonine-protein kinase WNK2 (WNK2, Homo sapiens, UniProt Q9Y3S1) | 100% |
| Mitogen-activated protein kinase kinase kinase 2 (MAP3K2, Homo sapiens, UniProt Q9Y2U5) | 82% |
| Ephrin type-A receptor 3 (EPHA3, Homo sapiens, UniProt P29320) | 100% |
| Serine/threonine-protein kinase TAO2 (TAOK2, Homo sapiens, UniProt Q9UL54) | 71% |
| Serine/threonine-protein kinase TBK1 (TBK1, Homo sapiens, UniProt Q9UHD2) | 87% |
